Measurements collected from several papers.
Numbered parts are unrelated; each lists some results of a single study. Substitutions count along the parent as printed.

Study 1
Target: CCNF, cyclin fold, Cln2 fusion (human)
Method: yeast growth competition, sequencing
Sample: yeast
Notes: strong parent motif
Relative to: not given
Reading: higher = stronger binding
Starting sequence: RBL2 docking peptide (human); STTRRRLFVENDS
| Change | normalised enrichment score |
| --- | --- |
| L7P | 0.687 |
| D12L | 8.23 |
| D12I | 8.54 |
| R5V | 1.88 |
| F8H | 2.15 |
| V9A | 8.72 |
| N11Q | 8.36 |
| E10N | 7.53 |
| N11D | 8.92 |
| T2Q | 8.29 |
| R6Q | 7.75 |
| N11A | 8.31 |
| T2D | 5.57 |
| T3C | 8.04 |
| T3Q | 3.21 |
| N11R | 7.98 |
| N11C | 8.54 |

Study 2
Target: Ras GTPase-activating protein-binding protein 1, RRM domain (G3BP1, Homo sapiens, UniProt Q13283)
Sequence of UniProt Q13283 (whole entry, looked up): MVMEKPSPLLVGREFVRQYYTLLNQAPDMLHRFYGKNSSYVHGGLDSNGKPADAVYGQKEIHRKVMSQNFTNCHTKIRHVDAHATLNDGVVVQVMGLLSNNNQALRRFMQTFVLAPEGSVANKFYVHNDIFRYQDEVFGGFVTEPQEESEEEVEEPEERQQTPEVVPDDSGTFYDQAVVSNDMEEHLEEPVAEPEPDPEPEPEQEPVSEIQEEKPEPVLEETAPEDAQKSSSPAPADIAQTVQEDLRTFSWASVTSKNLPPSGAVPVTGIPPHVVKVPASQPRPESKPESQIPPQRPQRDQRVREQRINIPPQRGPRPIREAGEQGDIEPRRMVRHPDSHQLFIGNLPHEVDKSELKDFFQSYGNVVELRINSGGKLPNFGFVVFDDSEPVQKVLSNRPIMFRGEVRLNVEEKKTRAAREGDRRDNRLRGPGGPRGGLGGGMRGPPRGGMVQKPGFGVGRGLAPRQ
Method: RNA Bind-n-Seq
Form: RNA
Sample: in vitro
Tested at: 1 µM
Notes: whole 134-nt RNA, ends assumed
Added: 150 mM KCl
Relative to: input library
Reading: higher = stronger binding
All sequences stand within: GGGAGUUCUACAGUCCGACGAUC … UGGAAUUCUCGGGUGUCAAGG
| Sequence | log2 enrichment |
| --- | --- |
| CCUCAAGUCCUGUGCUACACAUCGUAUGUACCGAAUCGGAAAGGAAAGGUGGAAAGUAUUAUGUUACGCCGUUCGGAUCUGCACUUCCAG | -0.131 |
| UCCUGUGCUACACAUCGUAUGUACCGAAUCGGGUUUUUUGGUUUUUUGGGGUUUUUUGGGAAAGUAUUAUGUUACGCCGUUCGGAUCUGC | -0.0823 |
| AGUCCUGUGCUACACAUCGUAUGUACCGAAUCGGGGUGGGGAGGGGAAAAAAAGGGGAAAGUAUUAUGUUACGCCGUUCGGAUCUGCACU | 0.821 |
| CAAGUCCUGUGCUACACAUCGUAUGUACCGAAUCGGAAAAAAAGGAAAGGUUUGGAAAGUAUUAUGUUACGCCGUUCGGAUCUGCACUUC | -0.186 |
| CCUGUGCUACACAUCGUAUGUACCGAAUCGGAAAAAAGGGAAAAAAGGGGAAAAAAGGGGAAAGUAUUAUGUUACGCCGUUCGGAUCUGC | -0.00793 |
| UGGCCCUGGGGGCAUGCGGGGAGGAAGAGGUGGCCUCAUGGAUCGUGGUGGUCCCGGUGGAAUGUUCAGAGGUGGCCGUGGUGGAGACAG | 0.927 |
| UGUGCUACACAUCGUAUGUACCGAAUCGGGGUUUUUUUGGGGUUUUUUUGGGUUUUUUUGGGGAAAGUAUUAUGUUACGCCGUUCGGAUC | -0.21 |
| CCUCAAGUCCUGUGCUACACAUCGUAUGUACCGAAUCGGAGGAAAGGUUUGGAAAGUAUUAUGUUACGCCGUUCGGAUCUGCACUUCCAG | -0.26 |
| GCAGGAAGUAAAAACAAAUGGAAAUGCUUCGGAUAGUGGCAGGGGAGGGGGUUGCUAAGGAAAGGGUGGGAUGGGAGUGGGUAAAGAGUU | 1.12 |
| AGUCCUGUGCUACACAUCGUAUGUACCGAAUCGGAAAAAGGUUUUUGGUUUUUUUGGAAAGUAUUAUGUUACGCCGUUCGGAUCUGCACU | -0.343 |
| GCAGGAAGUAAAAACAAAUGGAAAUGCCUCGGAUAGUGGCAGGGGUGGGGGUUGCUAAGGAAAGGGUGGGAUGGGAGUGGGUAAAGAGUU | 1.2 |
| UCCUGUGCUACACAUCGUAUGUACCGAAUCGGGGUUUGGGGUUUUUUUGGGGUUUGGGGAAAGUAUUAUGUUACGCCGUUCGGAUCUGCA | 1.14 |
| UAACUUUAGAGGAGGAUCUGAUGGAUAUGGCAGUGGACGUGGAUUUGGGGAUGGCUAUAAUGGGUAUAGAGGAGGACCUGGAGGUGGCAA | -0.323 |
| GUCCUGUGCUACACAUCGUAUGUACCGAAUCAAAUUUAAACCCCCCCAAAUUUUUAAAAAAGUAUUAUGUUACGCCGUUCGGAUCUGCAC | -0.0994 |

Study 3
Target: RNA binding protein fox-1 homolog 2, RRM domain, GST-SBP tag (RBFOX2, Homo sapiens, UniProt O43251-10, residues 100-194)
Method: RNA Bind-n-Seq
Form: RNA
Sample: in vitro
Tested at: 365 nM
Notes: natural RNA segment, single round, ends assumed
Relative to: no-protein control
Reading: higher = stronger binding
All sequences stand within: GGGAGUUCUACAGUCCGACGAUC … UGGAAUUCUCGGGUGCCAA
Target sequence (chain): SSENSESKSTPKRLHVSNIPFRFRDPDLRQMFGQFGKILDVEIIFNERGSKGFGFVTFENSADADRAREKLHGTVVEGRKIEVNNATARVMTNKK
| Sequence | RBNS enrichment (R) |
| --- | --- |
| CAGUGUGCACCGGUCACUACAUUCAGGCUAUUUGAGGUUUUCAUAUGCUGCAUUUCUUUGUUUUUAACACCUGGUUUUAUAGGUUCUCUUUCGUUUGUUAAGAAACUGGA | 0.709 |
| CUCAAAAUAUCAUGUUAAAUUAGAAUUUAUCUUUACCAAAAACCAUGUUGCUUUCAGAGAGGUCAACAUUAAAAUACUGAGACAGGACAGAAUGUGUUCUUUGUCCUUUU | 0.56 |
| AUAAACAUGUUAAAUGCAGGAUAUUUCUGCUUGGGGCAUCUUUGUGAUUUGUACUUUCCUACAAUUUAGCACUUUAACUGACAAUGAUGGGGUUUAAACAUUUGACAGCC | 0.55 |
| CUUGUAUUUUUCAGAUUAUUACAACACACUGUGCAGAAUUAGACAGAUGUUCCGUGGUGUUUGGUUUCCCUUUCUUCUCUCUCCUGCUCACUCUGCAUUAUAGCAGCAGC | 2.75 |
| UAAUGUUCUUUCUUCACAGCCGCUCCGGGAAUUCUGAAGUUCUGGGCCUUUCUCAGAAGACUGUAAUGUACCUGAAGUUUCUGAAAUAUUGCAAACCCACAGAGUUUAGG | 0.643 |
| GAGUCAUUCUCAUUGAAUUAUAAAAGCCAGCAGGCUUCAAACUAGGGGACAAAGCAAAAAGUGAUGAUAGUGGUGGAGUUAAUCUUAUCAAGAGUUGUGACAACUUCCUG | 0.49 |
| CAGUCCCUUAAUUUCUUGUGUGCAACUCUGUUUUAUCCUAGAACUAAGAGAGCAUUGGUUUGUUAAAGAGCUUUCAAUGUAUAUUAAAACCUUCAAUACUCAGAAAUGAU | 0.546 |
| AAUGGAAAGAAGGAAAAAAGGAGGAUAGAAAAAGGAUGGAAGAAAGAAGCAUUGAAAACAAAGACAUUCUUCCCACUUCUUGGAUUUUUAAACCACAGUCUGGAGUGAUA | 1.26 |
| GCAGAGGUGGUCUCUAGGGGGAGGCUGGUGCCAUUCCCUCCUGCCUGGCUCAGACCUCUUAGACUGGUCUCUCUUCCUCAGCUGCUGGGUUCUUUGUCUGCCCAGCUAUU | 0.404 |
| GUAUUCAUUUAUGCCUAAAUCUCUAUAACAGAUGAAAAGAUAAUUAAUAAAAUCCUAAUUAAAAAAUGAGAUCACCCACUAUCUAUCACUGCUUAGAUAAAAAGGGAAAG | 0.354 |
| CUGUGGGGUUUGUUAACAUGGAACUACUCAGCUUUCUUUCAGUCAACCCAUAAGCAAAUCAGAUAACCCACUGACUAUGAGAAUUACUUUAUAUAGAUAAUUCUUGACUG | 0.396 |
| AAAAUUUUUAAUUUCUAUAGUUAAGAUUUACUGCAUAAUAUAGAAUAUAAAGUUAAGUUAACAUACUAACAUUUCUCCUUUGGAGGAAGUUUUAAUCUACUUCAGGAUGC | 0.631 |

Study 4
Target: Centromere-binding protein 1, full length, His-tagged (CBF1, Saccharomyces cerevisiae, UniProt P17106, residues 1-351)
Sequence of UniProt P17106 (whole entry, looked up): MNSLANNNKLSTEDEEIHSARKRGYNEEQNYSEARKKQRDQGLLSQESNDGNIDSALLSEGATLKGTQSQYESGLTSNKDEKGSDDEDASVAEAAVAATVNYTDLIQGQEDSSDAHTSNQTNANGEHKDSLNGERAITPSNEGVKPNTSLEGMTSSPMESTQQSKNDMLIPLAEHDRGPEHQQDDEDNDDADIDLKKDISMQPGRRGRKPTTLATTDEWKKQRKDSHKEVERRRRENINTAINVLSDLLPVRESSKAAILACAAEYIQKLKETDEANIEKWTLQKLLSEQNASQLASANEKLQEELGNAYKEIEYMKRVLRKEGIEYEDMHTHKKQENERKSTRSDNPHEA
Method: competition protein-binding microarray
Form: double-stranded DNA, one strand shown
Sample: in vitro
Tested at: 2 µM
Notes: whole 60-bp probe, lowest competitor level
Added: Pho4 competitor, 0.05 µM
Reading: higher = stronger binding
All sequences stand within: … GTCTTGATTCGCTTGACGCTGCTG
| Sequence | fluorescence intensity [a.u.] |
| --- | --- |
| CAAGAGACTCGCGACCACGTGGAACGATCCAACTAC | 839 |
| TTCAAGAAAAATCCACGCGTGTGGACCTTTTTTTTC | 79.7 |
| GGCCGCTCAAGGGAGCACGTGACCTCGGCCTCTGGC | 16800 |
| CGTCCTAGTGATTTTCACGTGTGCTCCATGAGGAAG | 718 |
| AAACTAATGGATTGGCGCGTGTACTATATATATTCA | 113 |
| TGCGCAACAACTTGTCTTGTGGGTGTATGTCTAGAA | 76.4 |
| GCTTGTTTTCTCCGTCACGGGTTTAGACCTTGGTGG | 527 |
| TGCGCAACAACTTGCGGGGTGGGTGTATGTCTAGAA | 70.5 |
| ACTGGAAACGAGCAACACATGTCCCACTTTGCCACA | 109 |
| GATTTTGTTCTTTGTCATGTGATTTTAATCTGTCAA | 2290 |
| CTTTCCCGATCTTGGTAAGTGGGTGTAGCACATTTG | 71.7 |
| CTTCTGTAAATTTGTCACCCTACTTGACGCGCCCCG | 93.2 |
| CGTCCTAGTGATTGGACCGTGGGTGCCATGAGGAAG | 64.3 |
| GTCTTGTCTCATTGCGAAGTGGGTGTCCCCACTTCA | 73.9 |
| GTCTTGTCTCATTGATCGGTGGGTGTCCCCACTTCA | 80.7 |
| GTCTTGTCTCATTGTCACATGACTTTCCCCACTTCA | 2620 |
| CTTGAATAGTCATCGCACGATTCTGGAGTGTAAGCA | 72.9 |
| CTTTCCCGATCTTGTTCAGTGGGTGTAGCACATTTG | 66.5 |
| ATCTTCTTTCACAATCACGTGAAACTTCCTCGATAT | 3310 |
| GCTGACCCTATAACGCGCGTGAAGTAACAGCGATCT | 77.9 |

Some of these lines once more (study 1):
| Change | normalised enrichment score |
| --- | --- |
| D12I | 8.54 |
| R5V | 1.88 |
| F8H | 2.15 |
